Results from different studies.
Parts stem from different laboratories: compare values within a part only.

Block 1
Target: Histone acetyltransferase KAT6A, winged helix 1, GST fusion (KAT6A, Homo sapiens, UniProt Q92794, residues 1-85)
Method: protein binding microarray
Molecule type: double-stranded DNA, one strand shown
Sample: in vitro
Tested at: not given
Notes: 8-mer, flanks averaged, mean of 2 arrays, mostly near background
Baseline: not given
Reading: higher = stronger binding
Construct (chain): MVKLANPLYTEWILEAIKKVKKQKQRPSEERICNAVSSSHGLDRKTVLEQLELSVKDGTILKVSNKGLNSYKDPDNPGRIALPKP
| Strand | E-score |
| --- | --- |
| CGAAGGTC | 0.0601 |
| GCCCCAAC | -0.233 |
| CGTTTAGC | 0.28 |
| GAACCTGC | -0.155 |
| AACTTAAG | -0.0464 |
| AACCCAGT | -0.126 |
| AGGGAGAA | -0.31 |
| GCCCTAGC | -0.0221 |

Block 2
Cell line: HEK-293T/ACE2
Observed: pseudovirus infection
Organism: VSV pseudotyped with SARS-CoV-2 spike
Tested at: concentration not given
Baseline: vehicle-treated
| Structure (SMILES) | GFP-positive cells [%] |
| --- | --- |
| C[C@H]1O[C@]2(CS1)CN1CCC2CC1.C[C@H]1O[C@]2(CS1)CN1CCC2CC1.Cl.Cl.O | 80.1 |
| NCC[C@H](O)C(=O)N[C@@H]1C[C@H](N)[C@@H](O[C@H]2O[C@H](CN)[C@@H](O)[C@H](O)[C@H]2O)[C@H](O)[C@H]1O[C@H]1O[C@H](CO)[C@@H](O)[C@H](N)[C@H]1O.O=S(=O)(O)O.O=S(=O)(O)O | 88.4 |
| Cl.O=C1[C@@H]2[C@H]3CC[C@H](C3)[C@@H]2C(=O)N1C[C@@H]1CCCC[C@H]1CN1CCN(c2nsc3ccccc23)CC1 | 72.7 |

Block 3
Target: Sal-like protein 4, full length isoform A (SALL4, Homo sapiens, UniProt Q9UJQ4, residues 1-1053)
Sequence of UniProt Q9UJQ4 (whole entry, looked up): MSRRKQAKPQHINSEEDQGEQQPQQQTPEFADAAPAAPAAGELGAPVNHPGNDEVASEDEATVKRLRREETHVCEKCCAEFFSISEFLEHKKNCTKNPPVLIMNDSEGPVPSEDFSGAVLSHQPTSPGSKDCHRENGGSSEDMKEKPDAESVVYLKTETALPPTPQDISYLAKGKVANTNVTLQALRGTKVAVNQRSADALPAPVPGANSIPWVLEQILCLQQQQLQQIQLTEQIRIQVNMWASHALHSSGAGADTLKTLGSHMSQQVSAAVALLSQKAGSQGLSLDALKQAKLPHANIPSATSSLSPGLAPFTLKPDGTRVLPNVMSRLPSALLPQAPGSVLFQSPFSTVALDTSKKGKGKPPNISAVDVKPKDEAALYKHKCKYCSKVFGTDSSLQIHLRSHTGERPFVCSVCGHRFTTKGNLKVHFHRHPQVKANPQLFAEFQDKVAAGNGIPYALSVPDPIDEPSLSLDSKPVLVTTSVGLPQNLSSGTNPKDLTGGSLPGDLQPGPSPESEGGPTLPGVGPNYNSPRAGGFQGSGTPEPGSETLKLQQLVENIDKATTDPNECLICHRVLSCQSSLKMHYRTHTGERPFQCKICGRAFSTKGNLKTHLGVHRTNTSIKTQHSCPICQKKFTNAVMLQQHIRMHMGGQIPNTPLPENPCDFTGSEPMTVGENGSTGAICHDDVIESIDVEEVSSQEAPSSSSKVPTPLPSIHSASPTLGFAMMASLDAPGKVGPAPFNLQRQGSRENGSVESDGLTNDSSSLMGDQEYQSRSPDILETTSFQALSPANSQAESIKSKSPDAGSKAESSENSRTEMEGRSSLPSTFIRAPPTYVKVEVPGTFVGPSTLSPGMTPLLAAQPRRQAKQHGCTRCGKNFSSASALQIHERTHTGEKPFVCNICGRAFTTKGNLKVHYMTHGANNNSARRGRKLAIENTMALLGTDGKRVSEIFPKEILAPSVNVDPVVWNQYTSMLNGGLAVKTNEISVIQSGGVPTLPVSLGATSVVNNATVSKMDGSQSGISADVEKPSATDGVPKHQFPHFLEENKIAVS
Method: universal PBM
Molecule type: double-stranded DNA, one strand shown
Sample: in vitro
Tested at: 600 nM
Notes: 8-mer, flanks averaged, mean of replicates
Reading: higher = stronger binding
| Strand | E-score |
| --- | --- |
| ACTATTAG | 0.158 |
| ACATGTGC | -0.00908 |
| GAAATCCC | -0.116 |
| CTGGCAGC | -0.303 |
| ACATATTG | 0.277 |
| CCCAACCG | -0.287 |
| CGAGCAGC | -0.132 |
| CTACCCGC | -0.277 |

Block 4
Target: Replicase polyprotein 1ab, nsp13 helicase (rep, Severe acute respiratory syndrome coronavirus 2, UniProt P0DTD1)
Action: inhibitor
Tested at: 20 µM
| Compound | inhibition |
| --- | --- |
| O=c1ccc2ccccc2o1 | -0.33% |
| CC(=O)O[C@H]1CC[C@@]2(C)C(=CC[C@@H]3[C@@H]2CC[C@]2(C)C(c4cccnc4)=CC[C@@H]32)C1 | 3.13% |
| O=C(O)c1cc(=O)c2ccccc2o1 | -3.35% |
| Cc1ccc(O)c([C@H](CCN(C(C)C)C(C)C)c2ccccc2)c1 | -0.17% |
| Nc1cc(C(F)(F)F)c(-c2cc(N3CCOCC3)nc(N3CCOCC3)n2)cn1 | 2.9% |
| O=C(c1ccc(OCCN2CCCCC2)cc1)c1c(-c2ccc(O)cc2)sc2cc(O)ccc12 | 8.65% |
| Cc1ncc(CO)c(C=O)c1O | 6.36% |
| COc1cc2c3cc1Oc1cc(ccc1O)C[C@@H]1c4c(cc(OC)c(O)c4Oc4ccc(cc4)C[C@@H]3N(C)CC2)CC[N+]1(C)C | 6.19% |
| CC(C)(CC(=O)N1CCCC1)NCC(=O)N1C[C@@H](F)C[C@H]1C#N | 2.26% |
| CC(=O)Nc1c(I)cc(I)c(C(=O)O)c1I | 0.81% |
| Nc1c2c(nc3ccccc13)CCCC2 | 6.01% |
| Nc1ncnc(Nc2ccc(Cl)cc2)n1 | 4.76% |
| Cc1nn(C)c2nc(NNC(=O)Nc3cc(Cl)nc(Cl)c3)cc(C(C)C)c12 | 8.4% |
| N#C/C(=C\c1ccc(O)c(O)c1)C(=O)NCCCCc1ccccc1 | 7.41% |
| CC1(C)O[C@@H]2[C@@H](CO[C@@]3(COS(N)(=O)=O)OC(C)(C)O[C@@H]23)O1 | 4.46% |
| CCCCCCCCCCCCCCCCn1cc[n+](Cc2ccccc2)c1C | 36.6% |
| C=CCN1CCCC1CNC(=O)c1cc2nn[nH]c2cc1OC (centres unmarked) | 3.3% |
| O=C(O)/C=C/CO | 6.96% |
| Nc1ccn([C@@H]2O[C@H](CO)[C@@H](O)C2(F)F)c(=O)n1 | 2.08% |
| CC(=O)N(O)C/C=C/c1cccc(Oc2ccccc2)c1 | 4.73% |
| Fc1ccc(C(OCCN2CCN(C/C=C/c3ccccc3)CC2)c2ccc(F)cc2)cc1 | 2.05% |
| CC(C)(S)[C@@H](N)C(=O)O | -4.28% |
| CCOCOC[C@H](C[C@H](C)C(=O)NO)NC(=O)c1ccc(Oc2ccccc2)cc1 | 6.81% |
| CC(C)(C)Sc1c(CC(C)(C)C(=O)O)n(Cc2ccc(Cl)cc2)c2ccc(OCc3ccc4ccccc4n3)cc12 | 4.18% |
| Nc1nc2ccc(Cl)cc2c2nc(-c3ccco3)nn12 | 5.94% |

Block 5
Target: Replicase polyprotein 1ab, 3C-like proteinase (rep, Middle East respiratory syndrome-related coronavirus, UniProt K9N7C7)
Observed: enzyme activity
Action: inhibitor
Tested at: 10 µM
| SMILES | inhibition |
| --- | --- |
| O=C(/C=C/c1ccc(O)c(O)c1)O[C@H](Cc1ccc(O)c(O)c1)C(=O)O | 19% |
| Oc1cc2c(cc1O)[C@@H]1c3ccc(O)c(O)c3OC[C@]1(O)C2 | 5% |
| O=C(O)c1ccc(SSc2ccc(C(=O)O)cn2)nc1 | 8% |
| COC(=O)/C=C/c1cc(O)ccc1O | 40% |

Block 6
Target: Interferon regulatory factor 5, full length, phosphomimetic (IRF5, Homo sapiens, UniProt Q13568-2, residues 1-514, S451D/S453D/S456D/S462D)
Method: protein-binding microarray
Molecule type: double-stranded DNA, one strand shown
Sample: in vitro
Tested at: 940 nM top
Notes: 60-bp whole probe
Together with: salmon DNA 0.4 mg/ml
Baseline: random background probes
Reading: higher = stronger binding
Shared flanks, not repeated: GCCTAGCAC … GTCTTGATTCGCTTGACGCTGCTG
| Strand | fitted relative affinity [z-score] |
| --- | --- |
| CCAGACTGCAGAGCAAGATCGTGCTAG | -0.35 |
| GACGGACTGCTACTGCTGAGGTGCTAG | -0.525 |
| TAGAGTCTCAACCCCCAATAAGTGCTA | 0.937 |
| GACGATCTCAGTCTCGTGACGTGCTAG | 0.186 |
| GACGGATTGCTTATCCTGACGTGCTAG | -0.56 |
| GACGTTTTCAGTTTCGAGACGTGCTAG | 5.23 |
| TTAGATATCGGGACTGGAATAGTGCTA | -0.0804 |
| TTAGGATTCGACACTGGGTTAGTGCTA | -0.0608 |

Some of these lines once more (block 6):
| Strand | fitted relative affinity [z-score] |
| --- | --- |
| GACGATCTCAGTCTCGTGACGTGCTAG | 0.186 |
| TTAGATATCGGGACTGGAATAGTGCTA | -0.0804 |
| GACGTTTTCAGTTTCGAGACGTGCTAG | 5.23 |
| CCAGACTGCAGAGCAAGATCGTGCTAG | -0.35 |
| GACGGACTGCTACTGCTGAGGTGCTAG | -0.525 |
